Experimental data gathered from unrelated publications.
Compare with care: the assays were run in different laboratories. Several values in a cell are separate wells, animals, samples, runs or records. ± gives the spread as reported.

Compound	assay	test system	setting	scale	endpoint	result
CN1Cc2cc(Cl)ccc2-n2c(nnc2C2CCN(c3cccc([18F])n3)CC2)C1		C57BL/6 mouse male, blood	intravenous, 3.7 MBq, 30 min		tissue uptake	3.01 ± 0.5 %ID/g
O=C1NC2(CC2)COc2ncc(F)cc2[C@H]2COCCN2c2ccn3ncc1c3n2		Sprague-Dawley rat, female, liver	oral, 20 mg/kg/day, 4 weeks		organ weight	11.1 ± 2.33 g
CCCC[C@H]1C(=O)N(C)[C@@H](CCCC)C(=O)N[C@@H](CCCNC(=O)CN2CCN(CC(=O)O)CCN(CC(=O)O)CCN(CC(=O)O)CC2)C(=O)N[C@H](C(=O)NCC(N)=O)CSCC(=O)N[C@@H](Cc2ccc(O)cc2)C(=O)N(C)[C@@H](C)C(=O)N[C@@H](CC(N)=O)C(=O)N2CCC[C@H]2C(=O)N[C@@H](Cc2c[nH]cn2)C(=O)N[C@@H](CC(C)C)C(=O)N(C)CC(=O)N[C@@H](Cc2c[nH]c3ccccc23)C(=O)N[C@@H](CO)C(=O)N[C@@H](Cc2c[nH]c3ccccc23)C(=O)N1C [gallium-68 labelled]	radio-HPLC	Kunming mice, blood	intravenous, 15 min		radiochemical purity	95.9%
C[C@H](O)[C@@H](NC(=O)[C@H]1CCCN1C(=O)[C@@H](CCCCN)NC(=O)[C@@H](CO)NC(=O)[C@@H](Cc1ccc(O)cc1)NC(=O)[C@@H](CC(N)=O)NC(=O)CCOCCOCCOCCNC(=O)CN1CCN(CC(=O)O)CCN(CC(=O)O)CCN(CC(=O)O)CC1)C(=O)N[C@H](CC(=O)O)C(=O)N[C@H](CCCNC(=N)N)C(=O)N[C@H](CCC(N)=O)C(=O)N[C@H](Cc1ccc(O)cc1)C(=O)N[C@H](Cc1c[nH]cn1)C(=O)N[C@H](Cc1ccccc1)C(N)=O [copper-64 labelled]		C57BL/6J mice, kidney	intravenous, 1.85 MBq, 0.6667 h, radiolabelled		tissue uptake	29.3 ± 1.05 %ID/g
CSCC[C@H](N)C(=O)N[C@@H](C)C(=O)N[C@@H](Cc1c[nH]c2ccccc12)C(=O)N[C@@H](Cc1c[nH]cn1)C(=O)N[C@@H](CC(=O)O)C(=O)N[C@@H](CC(=O)O)C(=O)N[C@@H](CCC(=O)O)C(=O)N[C@@H](CCC(=O)O)C(=O)N[C@@H](Cc1ccccc1)C(=O)N[C@@H](C)C(=O)N[C@@H](CCCNC(=N)N)C(=O)N[C@@H](CCCNC(=N)N)C(=O)N[C@@H](CCCNC(=N)N)C(=O)N[C@@H](CCCNC(=N)N)C(=O)NCCCCCC(=O)NCCCCC(NC(=O)CCCCCNC(=O)[C@H](CCCNC(=N)N)NC(=O)[C@H](CCCNC(=N)N)NC(=O)[C@H](CCCNC(=N)N)NC(=O)[C@H](CCCNC(=N)N)NC(=O)[C@H](C)NC(=O)[C@H](Cc1ccccc1)NC(=O)[C@H](CCC(=O)O)NC(=O)[C@H](CCC(=O)O)NC(=O)[C@H](CC(=O)O)NC(=O)[C@H](CC(=O)O)NC(=O)[C@H](Cc1c[nH]cn1)NC(=O)[C@H](Cc1c[nH]c2ccccc12)NC(=O)[C@H](C)NC(=O)[C@@H](N)CCSC)C(=O)NCCCCC(NC(=O)C(CCCCNC(=O)CCCCCNC(=O)[C@H](CCCNC(=N)N)NC(=O)[C@H](CCCNC(=N)N)NC(=O)[C@H](CCCNC(=N)N)NC(=O)[C@H](CCCNC(=N)N)NC(=O)[C@H](C)NC(=O)[C@H](Cc1ccccc1)NC(=O)[C@H](CCC(=O)O)NC(=O)[C@H](CCC(=O)O)NC(=O)[C@H](CC(=O)O)NC(=O)[C@H](CC(=O)O)NC(=O)[C@H](Cc1c[nH]cn1)NC(=O)[C@H](Cc1c[nH]c2ccccc12)NC(=O)[C@H](C)NC(=O)[C@@H](N)CCSC)NC(=O)CCCCCNC(=O)[C@H](CCCNC(=N)N)NC(=O)[C@H](CCCNC(=N)N)NC(=O)[C@H](CCCNC(=N)N)NC(=O)[C@H](CCCNC(=N)N)NC(=O)[C@H](C)NC(=O)[C@H](Cc1ccccc1)NC(=O)[C@H](CCC(=O)O)NC(=O)[C@H](CCC(=O)O)NC(=O)[C@H](CC(=O)O)NC(=O)[C@H](CC(=O)O)NC(=O)[C@H](Cc1c[nH]cn1)NC(=O)[C@H](Cc1c[nH]c2ccccc12)NC(=O)[C@H](C)NC(=O)[C@@H](N)CCSC)C(N)=O (some centres unmarked)		C57BL/6 mouse female, femur	dose not given, 6 h	baseline: total	tissue distribution	1.29% and 1.62% and 1.38%
CCN1CC2(COC)C(O)CC(OC)C34C5CC6(O)C(OC)C(O)C(O)(C5C6OC(=O)c5ccccc5)C(C(OC)C23)C14 (centres unmarked)		Sprague-Dawley rat, plasma	oral, dose not given, with H in PCW extract		MRT(0-t)	306 ± 13.1 min
CC(C)[C@H](NC(=O)[C@H](Cc1ccccc1)NC(=O)[C@H](Cc1ccccc1)NC(=O)OCC1c2ccccc2-c2ccccc21)C(=O)N[C@@H](CCC(=O)O)C(=O)N[C@@H](CCC(=O)O)C(N)=O		mouse, blood	intravenous, 10 mg/kg, single dose		MRT	16.2 min
CC[C@H](C)[C@H](NC(=O)CNC(=O)[C@H](CCSC)NC(=O)[C@H](CCC(N)=O)NC(=O)[C@H](C)NC(=O)[C@H](CCC(N)=O)NC(=O)[C@@H](NC(=O)[C@H](CC(C)C)NC(=O)[C@H](C)NC(=O)[C@H](CO)NC(=O)[C@H](CCSC)NC(=O)[C@H](CCC(=O)O)NC(=O)[C@H](CC(C)C)NC(=O)[C@H](Cc1ccc(O)cc1)NC(=O)[C@H](CO)NC(=O)[C@H](CCC(=O)O)NC(=O)[C@H](CCC(N)=O)NC(=O)[C@H](CCCNC(=N)N)NC(=O)[C@H](CCCCN)NC(=O)[C@H](CC(=O)O)NC(=O)[C@H](CC(C)C)NC(=O)[C@H](CC(N)=O)NC(=O)[C@H](Cc1ccccc1)NC(=O)[C@H](CCC(=O)O)NC(=O)[C@H](CCCCN)NC(=O)[C@@H](NC(=O)[C@H](CC(C)C)NC(=O)[C@H](CCC(=O)O)NC(=O)[C@H](CCC(=O)O)NC(=O)[C@@H](NC(=O)[C@@H](NC(=O)[C@H](CCCNC(=N)N)NC(=O)[C@H](CCCCN)NC(=O)[C@H](C)NC(=O)[C@H](Cc1ccccc1)NC(=O)[C@H](CCC(=O)O)NC(=O)[C@H](CCC(=O)O)NC(=O)[C@H](CC(C)C)NC(=O)[C@@H](N)CO)C(C)C)C(C)C)C(C)C)[C@@H](C)CC)C(=O)N[C@@H](CO)C(=O)N[C@@H](CCC(=O)O)C(=O)N[C@@H](CCCNC(=N)N)C(=O)N[C@H](C(=O)N[C@H](C(=O)N[C@@H](CCC(=O)O)C(=O)N[C@H](C(=O)N[C@H](C(=O)N[C@@H](CC(C)C)C(=O)N[C@@H](CCCNC(=N)N)C(=O)N[C@@H](Cc1c[nH]cn1)C(=O)N[C@@H](C)C(=O)N[C@@H](C)C(=O)N[C@@H](CCC(N)=O)C(=O)N[C@H](C(=O)N[C@@H](CC(C)C)C(=O)N[C@@H](CCCCN)C(=O)O)[C@@H](C)O)C(C)C)[C@@H](C)CC)[C@@H](C)CC)[C@@H](C)CC		CD-1 ICR mouse, male, plasma	intravenous, 1 mg/kg		AUMC(0-inf)	85.9 µg·h²/mL
CC[C@H](C)[C@H](NC(=O)[C@H](CCCCN)NC(=O)CNC(=O)[C@H](CC(C)C)NC(=O)[C@H](Cc1ccccc1)NC(=O)[C@H](CCCCN)NC(=O)[C@H](CO)NC(=O)[C@H](Cc1ccccc1)NC(=O)[C@H](Cc1c[nH]c2ccccc12)NC(=O)[C@H](CCC(N)=O)NC(=O)[C@@H](NC(=O)[C@H](Cc1ccccc1)NC(=O)CCCCCNC(=O)CN1CCN(CC(=O)O)CCN(CC(=O)O)CCN(CC(=O)O)CC1)C(C)C)C(=O)N[C@@H](CCC(=O)O)C(=O)N1CCC[C@H]1C(=O)N[C@@H](CC(=O)O)C(=O)N[C@H](C(=O)N[C@@H](CO)C(=O)N[C@@H](CCC(N)=O)C(=O)N[C@H](C(=O)N[C@@H](CCC(N)=O)C(=O)N[C@@H](CC(=O)O)C(=O)N1CCC[C@H]1C(=O)N[C@@H](CC(N)=O)C(=O)N[C@@H](CC(=O)O)C(=O)N[C@@H](CCC(N)=O)C(=O)N[C@@H](Cc1ccc(O)cc1)C(=O)N[C@@H](CCC(=O)O)C(=O)N1CCC[C@H]1C(=O)N[C@@H](Cc1ccccc1)C(=O)O)C(C)C)C(C)C [copper-64 labelled]		C57BL/6 mice, male, tumour-free, kidneys	1 h		tissue uptake	90.3 ± 7.2 %ID/g
NC1CCN(C(=O)Oc2ccc(C3CCCC4(C3)OOC3(O4)C4CC5CC(C4)CC3C5)cc2)CC1 (racemic)		male ICR mouse, plasma	intravenous, 10 mg/kg		C0	2270 ng/mL
CSCC[C@H](NC(=O)CNC(=O)[C@H](CCCCN)NC(=O)[C@H](CC(C)C)NC(=O)[C@@H]1CCCN1C(=O)[C@H](CO)NC(=O)[C@H](Cc1c[nH]cn1)NC(=O)[C@H](Cc1c[nH]c2ccccc12)NC(=O)[C@H](CCCNC(=N)N)NC(=O)[C@H](CC(C)C)NC(=O)[C@H](CCCNC(=N)N)NC(=O)[C@H](Cc1c[nH]c2ccccc12)NC(=O)[C@H](CS)NC(=O)CCCCCNC(=O)CN1CCN(CC(=O)O)CCN(CC(=O)O)CCN(CC(=O)O)CC1)C(=O)O [copper-64 labelled]	ex vivo biodistribution	C57BL/6J mice bearing B16-F10 tumours, lung	intravenous, 1.85 MBq, 18 h		tissue uptake	5.14 %ID/g
CC(CCC(=O)NCC(=O)O)C1CCC2C3CCC4CC(OC5OC(C(=O)O)C(O)C(O)C5O)CCC4(C)C3CC(O)C12C (centres unmarked)		women, T/T genotype, plasma	dose not given, geometric mean		plasma concentration	40.5 ng/mL
C=C/C=C/C[C@@H](C)[C@@H](O)[C@H]1C(=O)N[C@@H](CC)C(=O)N(C)CC(=O)N(C)[C@@H](CC(C)C)C(=O)N[C@@H](C(C)C)C(=O)N(C)[C@@H](CC(C)C)C(=O)N[C@@H](C)C(=O)N[C@H](C)C(=O)N(C)[C@@H](CC(C)C)C(=O)N(C)[C@@H](CC(C)C)C(=O)N(C)[C@@H](C(C)C)C(=O)N1C		Wistar Kyoto rats, male	ip, 0.5 mg/kg/day, day 18	baseline: vehicle	fractional sodium excretion	no effect
C#Cc1c(F)ccc2cc(O)cc(-c3ncc4c(N5CC6CCC(C5)N6C(=O)OC(OC(=O)CCC)C5CCC5)nc(OC[C@@]56CCCN5C[C@H](F)C6)nc4c3F)c12 (some centres unmarked)	measured: prodrug	mouse whole blood	1 µM		t1/2	0.89 min

Some of these lines once more:
Compound	assay	test system	setting	scale	endpoint	result
CC[C@H](C)[C@H](NC(=O)[C@H](CCCCN)NC(=O)CNC(=O)[C@H](CC(C)C)NC(=O)[C@H](Cc1ccccc1)NC(=O)[C@H](CCCCN)NC(=O)[C@H](CO)NC(=O)[C@H](Cc1ccccc1)NC(=O)[C@H](Cc1c[nH]c2ccccc12)NC(=O)[C@H](CCC(N)=O)NC(=O)[C@@H](NC(=O)[C@H](Cc1ccccc1)NC(=O)CCCCCNC(=O)CN1CCN(CC(=O)O)CCN(CC(=O)O)CCN(CC(=O)O)CC1)C(C)C)C(=O)N[C@@H](CCC(=O)O)C(=O)N1CCC[C@H]1C(=O)N[C@@H](CC(=O)O)C(=O)N[C@H](C(=O)N[C@@H](CO)C(=O)N[C@@H](CCC(N)=O)C(=O)N[C@H](C(=O)N[C@@H](CCC(N)=O)C(=O)N[C@@H](CC(=O)O)C(=O)N1CCC[C@H]1C(=O)N[C@@H](CC(N)=O)C(=O)N[C@@H](CC(=O)O)C(=O)N[C@@H](CCC(N)=O)C(=O)N[C@@H](Cc1ccc(O)cc1)C(=O)N[C@@H](CCC(=O)O)C(=O)N1CCC[C@H]1C(=O)N[C@@H](Cc1ccccc1)C(=O)O)C(C)C)C(C)C [copper-64 labelled]		C57BL/6 mice, male, tumour-free, kidneys	1 h		tissue uptake	90.3 ± 7.2 %ID/g
NC1CCN(C(=O)Oc2ccc(C3CCCC4(C3)OOC3(O4)C4CC5CC(C4)CC3C5)cc2)CC1 (racemic)		male ICR mouse, plasma	intravenous, 10 mg/kg		C0	2270 ng/mL
